Experimental data from different studies.
Numbered parts are unrelated; each lists some results of a single study.
UniProt Q96PY6, sequence (whole entry, looked up): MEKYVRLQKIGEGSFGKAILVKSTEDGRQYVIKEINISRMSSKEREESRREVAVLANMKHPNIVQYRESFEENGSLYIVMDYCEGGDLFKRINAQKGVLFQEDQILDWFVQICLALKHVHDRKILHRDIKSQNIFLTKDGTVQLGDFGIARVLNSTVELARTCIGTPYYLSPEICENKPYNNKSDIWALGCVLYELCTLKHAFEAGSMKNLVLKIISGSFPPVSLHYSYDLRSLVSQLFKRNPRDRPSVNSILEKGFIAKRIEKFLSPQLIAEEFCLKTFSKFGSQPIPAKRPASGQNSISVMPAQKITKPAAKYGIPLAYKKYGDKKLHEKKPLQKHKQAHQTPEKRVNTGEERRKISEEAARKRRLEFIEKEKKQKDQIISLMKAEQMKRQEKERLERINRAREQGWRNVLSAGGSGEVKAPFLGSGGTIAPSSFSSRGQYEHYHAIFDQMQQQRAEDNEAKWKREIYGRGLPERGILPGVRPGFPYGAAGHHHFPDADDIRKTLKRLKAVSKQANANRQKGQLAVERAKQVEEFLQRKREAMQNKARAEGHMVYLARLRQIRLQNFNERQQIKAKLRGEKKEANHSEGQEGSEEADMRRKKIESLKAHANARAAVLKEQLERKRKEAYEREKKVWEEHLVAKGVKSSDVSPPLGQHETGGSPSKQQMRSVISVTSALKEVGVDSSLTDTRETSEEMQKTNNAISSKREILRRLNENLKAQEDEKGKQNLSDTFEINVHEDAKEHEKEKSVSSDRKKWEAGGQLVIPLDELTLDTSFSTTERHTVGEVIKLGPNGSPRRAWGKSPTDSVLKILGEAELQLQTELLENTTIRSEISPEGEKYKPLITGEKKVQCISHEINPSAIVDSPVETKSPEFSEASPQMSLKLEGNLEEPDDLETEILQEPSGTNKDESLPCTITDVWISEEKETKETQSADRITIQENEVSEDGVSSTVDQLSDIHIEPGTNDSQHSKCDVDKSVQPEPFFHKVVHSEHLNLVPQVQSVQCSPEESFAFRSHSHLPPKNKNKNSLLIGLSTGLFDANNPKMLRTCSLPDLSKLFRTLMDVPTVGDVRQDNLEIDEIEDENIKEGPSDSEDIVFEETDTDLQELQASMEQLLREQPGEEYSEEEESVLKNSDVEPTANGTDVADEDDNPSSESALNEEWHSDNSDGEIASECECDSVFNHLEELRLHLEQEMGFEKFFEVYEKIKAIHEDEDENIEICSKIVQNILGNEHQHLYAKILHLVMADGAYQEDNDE
UniProt Q8N4C8, sequence (whole entry, looked up): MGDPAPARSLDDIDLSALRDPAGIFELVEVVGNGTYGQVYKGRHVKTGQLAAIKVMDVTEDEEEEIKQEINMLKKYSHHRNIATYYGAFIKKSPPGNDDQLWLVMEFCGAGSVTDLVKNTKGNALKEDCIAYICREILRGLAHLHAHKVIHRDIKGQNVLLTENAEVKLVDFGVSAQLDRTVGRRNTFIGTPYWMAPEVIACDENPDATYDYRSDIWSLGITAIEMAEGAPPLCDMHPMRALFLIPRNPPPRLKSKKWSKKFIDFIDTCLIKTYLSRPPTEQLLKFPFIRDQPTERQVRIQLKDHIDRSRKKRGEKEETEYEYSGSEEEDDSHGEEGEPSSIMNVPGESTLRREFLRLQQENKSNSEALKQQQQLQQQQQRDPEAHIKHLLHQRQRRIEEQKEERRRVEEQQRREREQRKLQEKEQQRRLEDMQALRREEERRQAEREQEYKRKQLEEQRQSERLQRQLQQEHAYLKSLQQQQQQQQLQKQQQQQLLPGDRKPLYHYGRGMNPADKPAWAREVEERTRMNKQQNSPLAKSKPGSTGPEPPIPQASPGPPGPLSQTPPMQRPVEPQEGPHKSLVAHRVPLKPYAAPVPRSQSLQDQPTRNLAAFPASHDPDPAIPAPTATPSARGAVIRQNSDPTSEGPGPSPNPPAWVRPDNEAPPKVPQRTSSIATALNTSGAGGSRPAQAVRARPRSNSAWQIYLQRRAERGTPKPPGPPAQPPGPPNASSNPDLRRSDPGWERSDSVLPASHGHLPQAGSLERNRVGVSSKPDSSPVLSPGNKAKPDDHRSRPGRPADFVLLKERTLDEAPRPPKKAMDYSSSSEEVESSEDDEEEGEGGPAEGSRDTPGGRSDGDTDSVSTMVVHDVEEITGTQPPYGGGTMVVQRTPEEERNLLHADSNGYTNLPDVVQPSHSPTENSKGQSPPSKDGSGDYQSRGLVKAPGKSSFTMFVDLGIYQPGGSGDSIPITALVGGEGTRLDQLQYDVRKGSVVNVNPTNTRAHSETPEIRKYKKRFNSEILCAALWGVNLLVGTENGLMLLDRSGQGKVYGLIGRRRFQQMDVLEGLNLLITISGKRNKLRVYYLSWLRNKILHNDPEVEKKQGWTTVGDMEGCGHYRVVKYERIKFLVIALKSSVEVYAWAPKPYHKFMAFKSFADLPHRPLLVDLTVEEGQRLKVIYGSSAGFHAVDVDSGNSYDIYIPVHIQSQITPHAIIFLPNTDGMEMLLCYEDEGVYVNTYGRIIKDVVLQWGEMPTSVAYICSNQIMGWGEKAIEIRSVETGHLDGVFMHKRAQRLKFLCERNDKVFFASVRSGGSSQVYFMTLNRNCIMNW
UniProt O00506, sequence (whole entry, looked up): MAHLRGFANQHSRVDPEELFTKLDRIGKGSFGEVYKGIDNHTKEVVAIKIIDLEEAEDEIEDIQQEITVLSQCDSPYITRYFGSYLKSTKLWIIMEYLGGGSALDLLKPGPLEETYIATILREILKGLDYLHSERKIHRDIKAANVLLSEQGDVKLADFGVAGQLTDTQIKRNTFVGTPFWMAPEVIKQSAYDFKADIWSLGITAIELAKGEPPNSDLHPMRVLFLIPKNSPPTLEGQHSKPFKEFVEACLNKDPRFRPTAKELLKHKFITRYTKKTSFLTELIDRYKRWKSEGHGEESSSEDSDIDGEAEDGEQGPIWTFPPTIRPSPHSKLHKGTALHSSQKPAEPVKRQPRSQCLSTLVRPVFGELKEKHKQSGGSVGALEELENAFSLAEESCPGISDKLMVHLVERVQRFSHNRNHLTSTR
UniProt Q9Y6M4, sequence (whole entry, looked up): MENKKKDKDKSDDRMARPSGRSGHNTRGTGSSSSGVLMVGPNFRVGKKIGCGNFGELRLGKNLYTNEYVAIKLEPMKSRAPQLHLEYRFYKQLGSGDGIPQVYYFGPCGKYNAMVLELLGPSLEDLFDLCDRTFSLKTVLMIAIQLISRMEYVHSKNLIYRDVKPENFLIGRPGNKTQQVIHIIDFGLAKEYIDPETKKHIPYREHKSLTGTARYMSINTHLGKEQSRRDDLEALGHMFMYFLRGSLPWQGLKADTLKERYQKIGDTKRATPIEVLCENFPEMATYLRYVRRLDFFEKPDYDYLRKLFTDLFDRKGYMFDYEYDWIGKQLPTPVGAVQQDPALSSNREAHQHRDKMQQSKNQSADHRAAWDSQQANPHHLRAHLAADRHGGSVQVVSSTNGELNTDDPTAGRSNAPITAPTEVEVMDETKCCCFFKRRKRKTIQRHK
UniProt P10398, sequence (whole entry, looked up): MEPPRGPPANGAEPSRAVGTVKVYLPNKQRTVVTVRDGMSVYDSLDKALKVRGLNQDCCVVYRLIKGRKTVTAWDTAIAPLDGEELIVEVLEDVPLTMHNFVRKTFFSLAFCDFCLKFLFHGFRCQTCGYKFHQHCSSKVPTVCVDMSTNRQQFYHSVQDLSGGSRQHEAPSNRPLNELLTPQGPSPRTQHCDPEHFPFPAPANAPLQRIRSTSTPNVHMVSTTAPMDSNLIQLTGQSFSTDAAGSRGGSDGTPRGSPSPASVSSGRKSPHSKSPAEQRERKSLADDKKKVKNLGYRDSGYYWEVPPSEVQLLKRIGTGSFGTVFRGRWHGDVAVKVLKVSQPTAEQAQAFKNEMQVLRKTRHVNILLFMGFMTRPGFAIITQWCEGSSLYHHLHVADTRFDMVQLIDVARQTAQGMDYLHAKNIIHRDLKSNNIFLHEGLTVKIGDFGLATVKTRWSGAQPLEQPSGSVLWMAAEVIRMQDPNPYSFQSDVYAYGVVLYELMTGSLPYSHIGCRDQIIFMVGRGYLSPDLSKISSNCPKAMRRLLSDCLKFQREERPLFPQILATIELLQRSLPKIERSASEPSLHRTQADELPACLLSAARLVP
UniProt P53779, sequence (whole entry, looked up): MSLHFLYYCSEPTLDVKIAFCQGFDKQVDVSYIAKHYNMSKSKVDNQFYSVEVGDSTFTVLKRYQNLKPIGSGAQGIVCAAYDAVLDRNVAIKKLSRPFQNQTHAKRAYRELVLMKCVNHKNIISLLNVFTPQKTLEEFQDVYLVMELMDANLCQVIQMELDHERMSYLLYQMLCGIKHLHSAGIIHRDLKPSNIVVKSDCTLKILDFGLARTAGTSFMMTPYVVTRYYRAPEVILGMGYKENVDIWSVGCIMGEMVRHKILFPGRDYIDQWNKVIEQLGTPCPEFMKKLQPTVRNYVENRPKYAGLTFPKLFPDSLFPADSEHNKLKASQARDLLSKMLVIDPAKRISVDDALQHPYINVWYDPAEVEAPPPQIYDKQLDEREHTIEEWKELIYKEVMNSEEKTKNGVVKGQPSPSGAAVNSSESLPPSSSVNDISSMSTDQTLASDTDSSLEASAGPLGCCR

Block 1
Target: Calcium/calmodulin-dependent protein kinase type II subunit alpha (CAMK2A, Homo sapiens, UniProt Q9UQM7)
UniProt Q9UQM7, sequence (whole entry, looked up): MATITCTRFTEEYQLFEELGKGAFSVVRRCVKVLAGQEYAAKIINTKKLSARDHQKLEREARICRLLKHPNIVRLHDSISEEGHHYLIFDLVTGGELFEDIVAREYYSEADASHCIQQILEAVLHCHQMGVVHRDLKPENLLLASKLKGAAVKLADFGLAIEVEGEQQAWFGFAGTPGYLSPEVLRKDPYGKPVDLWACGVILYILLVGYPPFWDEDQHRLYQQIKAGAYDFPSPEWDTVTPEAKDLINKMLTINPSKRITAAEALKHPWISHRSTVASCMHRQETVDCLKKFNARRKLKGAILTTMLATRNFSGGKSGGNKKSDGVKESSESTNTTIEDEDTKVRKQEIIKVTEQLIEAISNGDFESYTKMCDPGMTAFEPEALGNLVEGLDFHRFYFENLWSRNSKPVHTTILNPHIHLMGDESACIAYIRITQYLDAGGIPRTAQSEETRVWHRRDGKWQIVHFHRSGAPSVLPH
Observed: enzyme activity
Action: inhibitor
Tested at: 10 µM
For `O=c1cc(-c2ccccc2)oc2cc(O[C@@H]3O[C@H](CO)[C@@H](O)[C@H](O)[C@H]3O)c(O)c(O)c12`, the inhibition was -18%.
`CC(=O)N[C@@H](CCC(=O)O)C(=O)O` gave an inhibition of 7%.
`CCCCCCCC/C=C\CCCCCCCC(=O)NCCO` has an inhibition of -39%.
`CC1=C(CC[C@H](C)CO[C@@H]2O[C@H](CO)[C@@H](O)[C@H](O)[C@H]2O)O[C@H]2C[C@H]3[C@@H]4CC[C@@H]5C[C@@H](O[C@@H]6O[C@H](CO)[C@@H](O)[C@H](O)[C@H]6O[C@@H]6O[C@H](CO)[C@@H](O)[C@H](O)[C@H]6O)CC[C@]5(C)[C@H]4CC[C@]3(C)[C@@H]12` has an inhibition of -22%.
`N[C@@H](Cc1ccc(O)c(Cl)c1)C(=O)O` gave an inhibition of -1%.
With `CO/N=C(\C(=O)N[C@@H]1C(=O)N2C(C(=O)[O-])=C(C[N+]3(C)CCCC3)CS[C@H]12)c1csc(N)n1` the inhibition was -5%.

Block 2
Compound: COc1cc2ncnc(N3CCN(C(=O)Nc4ccc(Oc5ccccc5)cc4)CC3)c2cc1OC
Observed: enzyme activity
Action: inhibitor
Tested at: 0.5 µM
Baseline: control
ULK2 (Homo sapiens, UniProt Q8IYT8) — remaining activity: 102%.
For WEE1 (Homo sapiens, UniProt P30291): remaining activity read 97.5%.
The remaining activity was 60% (MERTK (Homo sapiens, UniProt Q12866)).
The remaining activity was 82.7% (CSNK1G3 (Homo sapiens, UniProt Q9Y6M4)).
It gave 105% for remaining activity (ARAF (Homo sapiens, UniProt P10398)).
It gave 94.6% for remaining activity (CSNK1G2 (Homo sapiens, UniProt P78368)).
For MAP3K14 (Homo sapiens, UniProt Q99558): remaining activity read 105%.
RPS6KA2 (Homo sapiens, UniProt Q15349) — remaining activity: 86.1%.
For MST1R (Homo sapiens, UniProt Q04912): remaining activity read 90.3%.
It gave 100% for remaining activity (ULK3 (Homo sapiens, UniProt Q6PHR2)).
For MAPK3 (Homo sapiens, UniProt P27361): remaining activity read 102%.
It gave 92.6% for remaining activity (NEK1 (Homo sapiens, UniProt Q96PY6)).
For MAPKAPK2 (Homo sapiens, UniProt P49137): remaining activity read 102%.
For EPHA3 (Homo sapiens, UniProt P29320): remaining activity read 93.7%.

Block 3
Structure (SMILES): CN(C(=O)c1ccccc1)c1cc(N(C)c2ccc3c(c2)CCc2ccc(C(=O)NCCN4CCOCC4)cc2C3=O)ccc1F
Observed: cell-free assay
Technique: competition with immobilised ligand
Tested at: 1 µM
For EPHB4 (Homo sapiens, UniProt P54760): remaining binding read 96%.
It gave 100% for remaining binding (NIM1K (Homo sapiens, UniProt Q8IY84)).
For MAPK10 (Homo sapiens, UniProt P53779): remaining binding read 100%.
The remaining binding was 81% (STK25 (Homo sapiens, UniProt O00506)).
It gave 93% for remaining binding (MINK1 (Homo sapiens, UniProt Q8N4C8)).
RIOK2 (Homo sapiens, UniProt Q9BVS4) — remaining binding: 100%.
For MAPK13 (Homo sapiens, UniProt O15264): remaining binding read 100%.
The remaining binding was 100% (WNK2 (Homo sapiens, UniProt Q9Y3S1)).
For BTK (Homo sapiens, UniProt Q06187): remaining binding read 100%.

Block 4
Matrix: 1,9-decadiene/PBS
pH: 7.4
`CC(C)C[C@@H]1NC(=O)[C@@H](C)NC(=O)[C@@H](CC(C)C)NC(=O)[C@H](C)NC(=O)[C@H](C(C)C)NC(=O)[C@H](CC(C)C)NC(=O)[C@@H](CC(C)C)NC1=O` has a logD of -0.231.
For `CC(C)C[C@@H]1NC(=O)[C@H](CC(C)C)NC(=O)[C@@H](CC(C)C)NC(=O)[C@@H](C)NC(=O)[C@H](C(C)C)NC(=O)[C@H](Cc2cscn2)NC(=O)[C@H](C)NC1=O`, the logD was -1.61.
`CC(C)C[C@@H]1NC(=O)[C@H](Cc2cscn2)NC(=O)[C@H](CCC(=O)N2CCCC2)NC(=O)[C@@H](CCC(=O)N2CCCC2)NC(=O)[C@H](CC(C)C)NC(=O)[C@@H](CC(C)C)NC(=O)[C@H](CC(C)C)NC1=O` has a logD of -1.66.
For `CC(C)C[C@@H]1NC(=O)[C@H](Cc2cscn2)NC(=O)[C@H](CC(C)C)NC(=O)[C@@H](CCC(=O)N2CCCC2)NC(=O)[C@H](CC(C)C)NC(=O)[C@@H](CC(C)C)NC(=O)[C@H](CC(C)C)NC1=O`, the logD was 0.0857.
`CC(C)C[C@@H]1NC(=O)[C@H](CC(C)C)NC(=O)[C@@H](CC(C)C)NC(=O)[C@H](C)NC(=O)[C@@H](Cc2cscn2)NC(=O)[C@H](C)NC(=O)[C@H](CCC(=O)N2CCCC2)NC1=O` has a logD of -3.03.
For `CC(C)C[C@@H]1NC(=O)[C@H](CC(C)C)NC(=O)[C@H](CC(C)C)NC(=O)[C@H](C(C)C)NC(=O)[C@H](C)NC(=O)[C@@H](CC(C)C)NC(=O)[C@H](C)NC1=O`, the logD was -0.0365.
`CC(C)C[C@@H]1NC(=O)[C@H](CCC(=O)N2CCCC2)NC(=O)[C@H](CC(C)C)NC(=O)[C@@H](Cc2cscn2)NC(=O)[C@H](CC(C)C)NC(=O)[C@@H](CC(C)C)NC(=O)[C@H](CC(C)C)NC1=O` has a logD of -0.333.
With `CC(C)C[C@@H]1NC(=O)[C@H](Cc2cscn2)NC(=O)[C@H](CCC(=O)N2CCCC2)NC(=O)[C@H](CCC(=O)N2CCCC2)NC(=O)[C@@H](Cc2cscn2)NC(=O)[C@H](CC(C)C)NC(=O)[C@@H](CC(C)C)NC1=O` the logD was -3.22.
With `CC(C)C[C@@H]1NC(=O)[C@H](CC(C)C)NC(=O)[C@H](CC(C)C)NC(=O)[C@H](C(C)C)NC(=O)[C@@H](CCC(=O)N2CCCC2)NC(=O)[C@H](Cc2cscn2)NC(=O)[C@H](C)NC1=O` the logD was -1.77.
`CC(C)C[C@@H]1NC(=O)[C@H](CC(C)C)NC(=O)[C@H](CC(C)C)NC(=O)[C@H](CC(C)C)NC(=O)[C@@H](Cc2cscn2)NC(=O)[C@@H](CC(C)C)NC(=O)[C@H](C)NC1=O` has a logD of 0.385.

Excerpt of the above (block 1):
`CCCCCCCC/C=C\CCCCCCCC(=O)NCCO` has an inhibition of -39%.
`CC1=C(CC[C@H](C)CO[C@@H]2O[C@H](CO)[C@@H](O)[C@H](O)[C@H]2O)O[C@H]2C[C@H]3[C@@H]4CC[C@@H]5C[C@@H](O[C@@H]6O[C@H](CO)[C@@H](O)[C@H](O)[C@H]6O[C@@H]6O[C@H](CO)[C@@H](O)[C@H](O)[C@H]6O)CC[C@]5(C)[C@H]4CC[C@]3(C)[C@@H]12` has an inhibition of -22%.
`N[C@@H](Cc1ccc(O)c(Cl)c1)C(=O)O` gave an inhibition of -1%.
With `CO/N=C(\C(=O)N[C@@H]1C(=O)N2C(C(=O)[O-])=C(C[N+]3(C)CCCC3)CS[C@H]12)c1csc(N)n1` the inhibition was -5%.
